Measured values pooled from the literature.
Compare with care: the assays were run in different laboratories. ± gives the spread as reported.
guaB: Inosine-5'-monophosphate dehydrogenase (guaB, Staphylococcus aureus, UniProt Q2YVL6)
OXA-48: Beta-lactamase OXA-48 (OXA-48, Klebsiella pneumoniae, UniProt Q6XEC0)
Bcl-2-related protein A1 C113S/P104K: Bcl-2-related protein A1 (Mus musculus, UniProt Q07440, C113S/P104K)
CNR2: Cannabinoid receptor 2 (CNR2, Homo sapiens, UniProt P34972)
OXA-58: Beta-lactamase OXA-58 (OXA-58, Acinetobacter baumannii, UniProt Q2TR58)
Enpp1: Ectonucleotide pyrophosphatase/phosphodiesterase family member 1 (Enpp1, Mus musculus, UniProt P06802)

Amino acid sequences for entries named in this document (tags omitted). Residues count along the entry.
UniProt Q2YVL6, whole entry: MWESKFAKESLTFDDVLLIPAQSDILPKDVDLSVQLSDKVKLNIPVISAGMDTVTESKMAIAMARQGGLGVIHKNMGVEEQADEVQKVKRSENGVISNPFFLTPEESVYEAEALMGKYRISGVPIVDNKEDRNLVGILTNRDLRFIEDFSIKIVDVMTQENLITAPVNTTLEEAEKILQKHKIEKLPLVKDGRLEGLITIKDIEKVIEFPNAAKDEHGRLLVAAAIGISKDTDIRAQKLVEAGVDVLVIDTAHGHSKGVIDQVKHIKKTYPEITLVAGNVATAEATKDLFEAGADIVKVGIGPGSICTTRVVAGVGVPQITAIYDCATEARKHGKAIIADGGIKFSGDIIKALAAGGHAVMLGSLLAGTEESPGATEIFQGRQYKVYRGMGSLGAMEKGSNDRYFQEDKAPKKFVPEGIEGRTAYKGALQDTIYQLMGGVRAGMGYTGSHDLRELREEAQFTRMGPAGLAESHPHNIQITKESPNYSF
UniProt Q6XEC0, 23-265 limits assumed: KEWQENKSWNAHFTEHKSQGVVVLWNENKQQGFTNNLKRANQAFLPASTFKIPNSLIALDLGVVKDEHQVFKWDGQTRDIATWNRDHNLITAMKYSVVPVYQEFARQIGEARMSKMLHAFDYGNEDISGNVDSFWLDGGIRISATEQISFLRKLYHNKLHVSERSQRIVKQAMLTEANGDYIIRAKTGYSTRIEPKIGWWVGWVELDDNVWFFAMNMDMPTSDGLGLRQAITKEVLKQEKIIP
UniProt Q07440, 1-152 P104K/C113S limits assumed: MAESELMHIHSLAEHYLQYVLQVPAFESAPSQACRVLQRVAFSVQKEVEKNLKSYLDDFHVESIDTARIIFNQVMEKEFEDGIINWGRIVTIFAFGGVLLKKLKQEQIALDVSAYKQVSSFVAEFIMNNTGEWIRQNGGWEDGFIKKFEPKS
UniProt Q07440, whole entry P104K/C113S, looked up: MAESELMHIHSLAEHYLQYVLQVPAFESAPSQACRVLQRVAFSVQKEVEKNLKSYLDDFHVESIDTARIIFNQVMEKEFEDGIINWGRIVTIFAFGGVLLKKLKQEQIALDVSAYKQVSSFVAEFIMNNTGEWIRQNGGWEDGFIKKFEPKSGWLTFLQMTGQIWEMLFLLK
UniProt Q2TR58, 19-280 limits assumed: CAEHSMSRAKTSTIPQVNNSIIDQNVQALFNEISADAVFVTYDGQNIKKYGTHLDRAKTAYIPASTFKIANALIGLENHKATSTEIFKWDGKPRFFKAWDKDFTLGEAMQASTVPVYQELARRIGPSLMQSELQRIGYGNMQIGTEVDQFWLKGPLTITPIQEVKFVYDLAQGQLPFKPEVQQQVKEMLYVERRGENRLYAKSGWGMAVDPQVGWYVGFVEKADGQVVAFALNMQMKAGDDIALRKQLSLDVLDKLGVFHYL
UniProt P06802, 92-905 isoform 2 limits assumed: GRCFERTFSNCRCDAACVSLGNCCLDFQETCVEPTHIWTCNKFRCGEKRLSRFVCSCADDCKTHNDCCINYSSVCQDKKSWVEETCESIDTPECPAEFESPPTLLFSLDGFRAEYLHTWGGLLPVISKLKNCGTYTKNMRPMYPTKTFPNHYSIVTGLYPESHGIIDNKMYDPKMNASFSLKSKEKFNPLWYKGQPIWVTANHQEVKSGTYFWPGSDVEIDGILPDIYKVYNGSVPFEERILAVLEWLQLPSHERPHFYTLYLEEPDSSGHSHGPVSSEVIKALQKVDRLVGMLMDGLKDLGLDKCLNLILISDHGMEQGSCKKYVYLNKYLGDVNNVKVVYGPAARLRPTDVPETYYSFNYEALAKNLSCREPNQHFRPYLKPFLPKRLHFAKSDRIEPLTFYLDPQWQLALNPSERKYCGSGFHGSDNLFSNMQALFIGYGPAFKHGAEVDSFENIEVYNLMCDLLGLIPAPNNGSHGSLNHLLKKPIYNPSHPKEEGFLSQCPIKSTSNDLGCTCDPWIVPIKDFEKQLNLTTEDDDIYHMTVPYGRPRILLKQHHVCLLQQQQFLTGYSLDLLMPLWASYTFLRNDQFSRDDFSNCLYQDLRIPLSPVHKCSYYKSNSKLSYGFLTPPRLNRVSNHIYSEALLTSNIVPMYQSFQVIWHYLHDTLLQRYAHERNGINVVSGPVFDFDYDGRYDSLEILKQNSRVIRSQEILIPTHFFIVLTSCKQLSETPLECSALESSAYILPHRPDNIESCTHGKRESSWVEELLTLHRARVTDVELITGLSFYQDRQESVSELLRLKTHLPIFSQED
UniProt Q8I719, whole entry: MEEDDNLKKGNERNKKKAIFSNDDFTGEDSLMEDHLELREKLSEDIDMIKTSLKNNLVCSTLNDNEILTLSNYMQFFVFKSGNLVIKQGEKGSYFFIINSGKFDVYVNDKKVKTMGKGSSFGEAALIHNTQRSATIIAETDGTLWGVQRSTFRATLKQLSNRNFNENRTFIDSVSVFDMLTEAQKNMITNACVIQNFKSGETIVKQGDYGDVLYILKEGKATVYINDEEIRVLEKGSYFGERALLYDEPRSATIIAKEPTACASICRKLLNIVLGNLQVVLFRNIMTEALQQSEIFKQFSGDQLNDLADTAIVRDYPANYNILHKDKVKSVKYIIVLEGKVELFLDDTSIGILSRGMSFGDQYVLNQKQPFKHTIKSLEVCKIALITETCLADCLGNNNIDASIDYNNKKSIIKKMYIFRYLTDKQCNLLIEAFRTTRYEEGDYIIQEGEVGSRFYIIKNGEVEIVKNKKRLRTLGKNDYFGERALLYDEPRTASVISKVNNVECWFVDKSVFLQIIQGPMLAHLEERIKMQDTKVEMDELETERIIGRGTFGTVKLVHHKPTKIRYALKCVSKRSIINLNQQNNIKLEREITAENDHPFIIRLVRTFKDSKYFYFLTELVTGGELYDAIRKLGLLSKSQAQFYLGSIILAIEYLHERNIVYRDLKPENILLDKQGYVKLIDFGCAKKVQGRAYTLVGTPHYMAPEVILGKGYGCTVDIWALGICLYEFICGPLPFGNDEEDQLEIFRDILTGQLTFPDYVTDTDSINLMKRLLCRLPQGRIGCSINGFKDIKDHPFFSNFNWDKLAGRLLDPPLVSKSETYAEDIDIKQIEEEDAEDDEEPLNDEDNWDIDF
UniProt Q07817, whole entry: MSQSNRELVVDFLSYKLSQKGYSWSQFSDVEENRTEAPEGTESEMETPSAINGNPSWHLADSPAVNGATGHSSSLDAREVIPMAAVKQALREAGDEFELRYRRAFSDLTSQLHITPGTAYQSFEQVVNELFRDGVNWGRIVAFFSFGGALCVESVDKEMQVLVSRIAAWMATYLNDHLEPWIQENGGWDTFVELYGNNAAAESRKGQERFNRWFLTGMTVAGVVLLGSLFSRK
UniProt P49789, whole entry: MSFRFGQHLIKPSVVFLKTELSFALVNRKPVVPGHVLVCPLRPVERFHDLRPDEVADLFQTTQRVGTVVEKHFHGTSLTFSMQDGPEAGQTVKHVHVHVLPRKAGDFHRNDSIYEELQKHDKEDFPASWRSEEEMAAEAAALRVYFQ
UniProt P0AD64, 22-286 limits assumed: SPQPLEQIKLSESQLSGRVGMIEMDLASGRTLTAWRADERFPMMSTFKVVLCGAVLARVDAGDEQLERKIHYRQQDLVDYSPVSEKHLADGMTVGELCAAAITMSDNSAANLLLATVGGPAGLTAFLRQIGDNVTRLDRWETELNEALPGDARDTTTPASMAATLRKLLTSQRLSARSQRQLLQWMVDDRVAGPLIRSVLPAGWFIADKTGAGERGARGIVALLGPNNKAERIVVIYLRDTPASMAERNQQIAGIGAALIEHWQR
UniProt C7C2U7, 1-163: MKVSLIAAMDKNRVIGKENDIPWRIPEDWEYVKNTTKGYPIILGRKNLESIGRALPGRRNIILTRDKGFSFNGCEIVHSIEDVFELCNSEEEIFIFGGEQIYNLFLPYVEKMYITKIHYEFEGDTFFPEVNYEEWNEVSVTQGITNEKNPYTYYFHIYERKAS
UniProt P35462, whole entry: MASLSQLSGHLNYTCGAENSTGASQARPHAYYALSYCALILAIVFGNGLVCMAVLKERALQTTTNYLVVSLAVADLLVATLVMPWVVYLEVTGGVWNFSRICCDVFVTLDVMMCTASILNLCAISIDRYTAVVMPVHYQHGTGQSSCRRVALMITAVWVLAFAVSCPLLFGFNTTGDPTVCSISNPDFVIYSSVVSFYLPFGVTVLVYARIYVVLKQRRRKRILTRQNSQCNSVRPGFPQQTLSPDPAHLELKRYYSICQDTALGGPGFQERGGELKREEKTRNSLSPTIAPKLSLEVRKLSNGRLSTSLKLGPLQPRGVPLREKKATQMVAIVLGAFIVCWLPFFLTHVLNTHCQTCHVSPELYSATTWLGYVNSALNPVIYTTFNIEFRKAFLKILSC
UniProt Q8MXD1, 178-592 limits assumed: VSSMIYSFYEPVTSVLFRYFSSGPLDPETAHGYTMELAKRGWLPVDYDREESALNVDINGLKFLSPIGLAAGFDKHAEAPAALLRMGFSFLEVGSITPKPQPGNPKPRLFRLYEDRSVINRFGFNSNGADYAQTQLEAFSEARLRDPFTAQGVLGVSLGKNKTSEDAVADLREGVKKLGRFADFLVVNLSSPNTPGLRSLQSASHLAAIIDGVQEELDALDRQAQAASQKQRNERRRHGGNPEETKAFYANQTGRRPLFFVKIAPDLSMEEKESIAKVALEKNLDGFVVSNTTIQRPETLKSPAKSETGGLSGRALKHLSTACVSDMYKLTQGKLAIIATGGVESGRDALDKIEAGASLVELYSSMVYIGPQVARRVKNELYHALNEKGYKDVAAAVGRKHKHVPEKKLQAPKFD
UniProt Q04430, whole entry: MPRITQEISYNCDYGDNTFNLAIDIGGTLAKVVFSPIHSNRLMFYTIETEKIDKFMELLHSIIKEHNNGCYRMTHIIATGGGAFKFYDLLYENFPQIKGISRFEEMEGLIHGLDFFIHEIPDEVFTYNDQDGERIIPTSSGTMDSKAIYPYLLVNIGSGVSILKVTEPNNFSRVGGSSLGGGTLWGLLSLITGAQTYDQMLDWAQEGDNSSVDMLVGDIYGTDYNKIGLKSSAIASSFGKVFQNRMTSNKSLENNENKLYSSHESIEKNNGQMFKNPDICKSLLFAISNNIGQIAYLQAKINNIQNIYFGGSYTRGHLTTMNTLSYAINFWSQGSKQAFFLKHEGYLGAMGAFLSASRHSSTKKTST
UniProt P31652, whole entry: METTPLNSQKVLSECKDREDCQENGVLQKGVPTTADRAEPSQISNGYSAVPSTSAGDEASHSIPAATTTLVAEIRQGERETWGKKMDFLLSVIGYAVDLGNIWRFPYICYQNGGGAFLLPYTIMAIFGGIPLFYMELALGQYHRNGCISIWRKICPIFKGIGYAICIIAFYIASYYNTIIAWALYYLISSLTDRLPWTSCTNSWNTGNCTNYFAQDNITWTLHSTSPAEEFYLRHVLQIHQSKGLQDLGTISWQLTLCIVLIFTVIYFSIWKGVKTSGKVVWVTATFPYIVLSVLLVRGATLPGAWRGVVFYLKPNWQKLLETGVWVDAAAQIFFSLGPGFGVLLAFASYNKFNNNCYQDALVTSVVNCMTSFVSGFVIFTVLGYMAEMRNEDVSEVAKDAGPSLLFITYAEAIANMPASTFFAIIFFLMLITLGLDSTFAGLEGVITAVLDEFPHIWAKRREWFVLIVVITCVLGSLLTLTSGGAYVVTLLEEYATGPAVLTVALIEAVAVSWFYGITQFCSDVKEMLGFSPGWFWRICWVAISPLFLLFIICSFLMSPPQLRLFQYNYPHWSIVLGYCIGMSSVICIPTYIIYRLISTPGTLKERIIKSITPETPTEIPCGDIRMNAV
UniProt P13955, whole entry: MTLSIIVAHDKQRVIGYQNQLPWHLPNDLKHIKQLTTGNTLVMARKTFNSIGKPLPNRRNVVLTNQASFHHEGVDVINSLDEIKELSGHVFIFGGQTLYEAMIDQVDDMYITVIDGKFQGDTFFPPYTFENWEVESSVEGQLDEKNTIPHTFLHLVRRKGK
UniProt P05067, 672-713 limits assumed: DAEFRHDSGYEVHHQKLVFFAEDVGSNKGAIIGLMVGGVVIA
UniProt P40763, whole entry: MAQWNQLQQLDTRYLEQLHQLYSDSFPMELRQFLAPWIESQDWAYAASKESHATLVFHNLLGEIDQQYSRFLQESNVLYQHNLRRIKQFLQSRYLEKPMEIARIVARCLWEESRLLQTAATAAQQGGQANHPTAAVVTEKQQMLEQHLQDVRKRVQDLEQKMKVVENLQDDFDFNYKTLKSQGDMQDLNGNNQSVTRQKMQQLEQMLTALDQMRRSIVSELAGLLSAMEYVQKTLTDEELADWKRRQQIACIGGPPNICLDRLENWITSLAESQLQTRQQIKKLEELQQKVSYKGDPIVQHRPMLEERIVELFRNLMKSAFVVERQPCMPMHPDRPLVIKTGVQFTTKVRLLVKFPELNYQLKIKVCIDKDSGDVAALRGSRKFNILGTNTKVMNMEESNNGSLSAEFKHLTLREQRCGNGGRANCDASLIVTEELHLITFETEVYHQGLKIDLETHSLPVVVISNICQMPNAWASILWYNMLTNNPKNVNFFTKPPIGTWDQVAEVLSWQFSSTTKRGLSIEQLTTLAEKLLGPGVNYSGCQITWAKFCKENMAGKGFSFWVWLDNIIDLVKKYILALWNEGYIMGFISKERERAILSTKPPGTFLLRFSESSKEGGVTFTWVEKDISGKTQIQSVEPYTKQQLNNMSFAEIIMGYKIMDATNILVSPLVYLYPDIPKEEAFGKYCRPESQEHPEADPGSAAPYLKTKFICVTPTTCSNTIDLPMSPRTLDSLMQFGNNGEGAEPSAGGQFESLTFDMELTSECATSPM

Compound	target	assay	system	setting	Ki
Nc1nc2c(ncn2[C@@H]2CC[C@H](OC(C(=O)O)P(=O)(O)O)C2)c(=O)[nH]1 (relative stereo)	Gag-Pol polyprotein, reverse transcriptase (gag-pol, Human immunodeficiency virus type 1 group M subtype B, UniProt P04585)	noncompetitive inhibitor		added: varying dGTP, poly rC.dG	0.85 µM
C=C(C)c1cccc(C(C)(C)NC(=O)Nc2ccc(Cl)c(O)c2)c1	guaB	inhibitor		added: 1000 µM IMP and 1000 µM NAD+	0.009 ± 0.004 µM
O=C(O)C(Cc1nn[nH]n1)[C@@H]1CCN[C@H]1C(=O)O (relative stereo)	native NMDA receptor, rat	binding	rat cortical synaptosomes	added: [3H]CGP 39653	0.21 µM
CCOc1ccccc1N1CCN(c2ncnc(N3CCC(C(N)=O)CC3)n2)CC1	OXA-48	enzyme activity, inhibitor		added: nitrocefin	> 50 µM
Cc1ccc(N=Nc2c(O)c(C(=O)O)cc3ccccc23)c(S(=O)(=O)O)c1	Bcl-2-related protein A1 C113S/P104K	binding, inhibitor, fluorescence polarization competition		added: FITC-Noxa peptide, Kd 20 nM	19.6 µM
Cc1c(C(=O)NN2CCCCC2)nn(-c2ccc(Cl)cc2Cl)c1-c1ccc(CCCCCBr)cc1	CNR2	radioligand displacement		added: [3H]CP55,940	0.203 µM
CS(=O)(=O)Cc1onc(-c2cccc(Cl)c2)c1-c1ccnc(N[C@@H]2CCN(Cc3nccs3)C2)n1	cGMP-dependent protein kinase (PKG, Plasmodium falciparum, UniProt Q8I719)	kinase activity, ATP-competitive inhibitor, IMAP kinetics			0.068 ± 0.02 µM
Cc1cc(OCCCc2c(C(=O)Nc3cccc(C(=O)O)c3)[nH]c3c(-c4c(C)nn(C)c4C)c(Cl)ccc23)cc(C)c1Cl	BCL2L1 (Homo sapiens, UniProt Q07817)	fluorescence polarization competition		added: 10 nM FITC-Bak peptide	4.6 µM
CC(=NO)c1cccc(C(C)(C)NC(=O)Nc2ccc(Cl)c(-c3nc(C(F)(F)F)cs3)c2)c1	IMPDH 2, Staphylococcus aureus, G445S	inhibitor		added: 500 µM NAD+, 1.0 mM IMP	1.33 ± 0.03 µM
O[C@H](c1ccc(F)cc1)C(F)(F)CCN1CCC(O)(c2ccc(Cl)cc2)CC1 (racemic)	DRD4 (Homo sapiens, UniProt P21917)				0.0369 ± 0.0029 µM
O=S(=O)(O)c1ccc2c(c1)Cc1cc(S(=O)(=O)O)ccc1-2	OXA-58	enzyme activity, inhibitor		enzyme 0.1 nM, added: nitrocefin 30 µM	3.4 ± 0.3 µM
O=C(NC1CCN(c2ncnc3c2nc(-c2ccccc2Cl)n3-c2ccc(Cl)cc2)CC1)C1CCCCC1	CNR1 (Homo sapiens, UniProt P21554)	binding, radioligand displacement	CHO cell membranes	added: [3H]CP55940	0.003 µM
Nc1ncnc2c1ncn2[C@@H]1O[C@H](COP(=S)(S)OCC(O)COP(=S)(S)OC[C@H]2O[C@@H](n3cnc4c(N)ncnc43)[C@H](O)[C@@H]2O)[C@@H](O)[C@H]1O (stereo partly shown)	FHIT (Homo sapiens, UniProt P49789)	competitive inhibitor, fluorescent substrate hydrolysis		added: Appp-BODIPY substrate	8.6 µM
O=S(=O)(O)c1ccc(-c2ccc(S(=O)(=O)O)cc2)cc1	OXA-58	enzyme activity, inhibitor		enzyme 0.1 nM, added: nitrocefin 30 µM	1.8 ± 0.1 µM
COc1cccc2c(NCc3ccc(P(=O)(O)O)cc3)c(C#N)cnc12	Enpp1	enzyme activity, inhibitor, coupled luciferase AMP detection		pH 7.4, added: cGAMP 5 µM	< 0.002 µM
CC(C)(NC(=O)Nc1ccc(Cl)cc1)c1cccc(C(=N)NO)c1	guaB	inhibitor		added: 1000 µM IMP and 1000 µM NAD+	0.0215 ± 0.0002 µM
O=C(Cc1cccs1)NCB(O)O	bla (Klebsiella pneumoniae, UniProt P0AD64)	enzyme activity, inhibitor		added: nitrocefin competitor	42 ± 4 µM
CCc1nc(N)nc(N)c1C#CC(C)c1cc2c(c(-c3ccc(CC(=O)O)cc3)c1)OCO2 (stereo not shown)	Dihydrofolate reductase (Staphylococcus aureus, UniProt C7C2U7)	inhibitor			0.0018 ± 0.0002 µM
COc1ccccc1N1CCN(CCCCN2CCCc3ccccc3C2=O)CC1	DRD3 (Homo sapiens, UniProt P35462)	radioligand competition binding		added: [3H]N-methylspiperone	0.0007 µM

Compound	target	assay	system	setting	Ki
Nc1nc2[nH]cc(Cc3ccc(C(=O)Nc4ccccc4C(=O)O)cc3)c2c(=O)[nH]1	Dihydrofolate reductase (Wuchereria bancrofti, UniProt J9F199)	inhibitor, Cheng-Prusoff from IC50			1 µM
COc1ccc(NC(=O)CSc2nc3c(N)ncnc3[nH]2)cc1OC	Enpp1	enzyme activity, inhibitor, coupled luciferase AMP detection		pH 9, added: cGAMP 5 µM	> 10 µM
O=c1c2ccc(Oc3ccc(OC(F)(F)F)cc3)cc2[nH]c2cc(F)cc(Cl)c12	Dihydroorotate dehydrogenase (Toxoplasma gondii, UniProt Q8MXD1)	enzyme activity, competitive inhibitor, DCIP reduction			0.059 µM
COCCCNc1cc(C(=O)NC2CC3CCC(C2)N3c2ccc(C(=O)NCc3ccccc3)cn2)ccc1C(N)=O (stereo not shown)	HSP90AA1 (Homo sapiens, UniProt P07900)	fluorescence polarization		full-length protein, added: FITC-geldanamycin tracer	0.44 ± 0.13 µM
CC(C)(C)c1ccc(CNc2nc3[nH]c(CN4CCCCC4)cc(=O)n3n2)cc1	CAB1 (Saccharomyces cerevisiae, UniProt Q04430)	enzyme activity, inhibitor, ADP-Glo, Lineweaver-Burk		added: ATP 1000 µM	0.076 µM
O=C(O)c1ccc(-c2cccc(C(=O)O)c2)cc1	OXA-48	enzyme activity, inhibitor			0.4 µg/mL
O=C(Cc1cccs1)NCB(O)O	ADC-7 beta-lactamase (Acinetobacter baumannii, UniProt Q6DRA1)	inhibitor		pH 7.4, room temperature, added: nitrocefin substrate	0.78 ± 0.02 µM
C[C@@H]1CN(C)CCN1c1nc(-c2ccc(F)cc2)cs1	Slc6a4 (Rattus norvegicus, UniProt P31652)	[3H]5-HT uptake, inhibitor		30 min preincubation	0.17 ± 0.09 µM
Cc1ccc(N=Nc2c(O)ccc3cc(S(=O)(=O)O)ccc23)cc1	Bcl-2-related protein A1 C113S/P104K	binding, inhibitor, fluorescence polarization		added: FITC-labelled Noxa peptide	6.06 µM
CCc1nc(N)nc(N)c1C#CC(C)c1cc2c(c(-c3ccc(C(=O)O)cc3)c1)OCO2 (stereo not shown)	Dihydrofolate reductase type 1 from Tn4003 (Staphylococcus aureus, UniProt P13955)	inhibitor			0.017 ± 0.001 µM
O=C(NC1CCN(c2ncnc3c2nc(-c2ccccc2Cl)n3-c2ccc(Cl)cc2)CC1)C1CCCC1	CNR2	binding, radioligand displacement	CHO cell membranes	added: [3H]CP55940	0.06 µM
Cc1cc(O)nc2ccc(NS(=O)(=O)c3cc(Cl)cc(Cl)c3O)cc12	Beta-lactamase (ampC, Escherichia coli K-12, UniProt P00811)	inhibitor, three-point inhibition		0.01% Triton X-100	7.33 µM
CCCCCCCCCCCCNC(=O)N[C@H](C(=O)N[C@H]1/C=C/CCNC(=O)/C=C/[C@H](C)NC1=O)C(C)C	PSMB6 (Homo sapiens, UniProt P28072)	caspase-like activity, inhibitor, Proteasome-Glo	ARD	24 h	0.138 ± 0.052 µM
COc1cc2c(cc1OC)C(=O)C(CC1CCN(Cc3cc(C=Cc4ccc(C=Cc5ccc(N(C)C)cc5)cc4)cc(OC)c3O)CC1)C2 (stereo not shown)	Amyloid-beta precursor protein, Aβ42 fibrils (APP, Homo sapiens, UniProt P05067)	thioflavin T displacement, competition binding	Aβ42 aggregates 5 µM	added: thioflavin T 2 µM	1.3 ± 0.3 µM
O=S(=O)(O)c1ccc2cc(S(=O)(=O)O)ccc2c1	OXA-48	enzyme activity, inhibitor			1.7 µg/mL
CC(C)C(C(=O)N(Cc1ccc(C2CCCCC2)cc1)c1ccc(C(=O)O)cc1)N(C)S(=O)(=O)c1c(F)c(F)c(F)c(F)c1F (stereo not shown)	STAT3 (Homo sapiens, UniProt P40763)	fluorescence polarization		added: 5-FAM-GpYLPQTV-NH2 10 nM	72 ± 6 µM
CC(C)(NC(=O)Nc1ccc(Cl)c(-c2nc(C(F)(F)F)cs2)c1)c1cccc(C(N)=NO)c1	IMPDH 2, Staphylococcus aureus, G445S	inhibitor		added: 500 µM NAD+, 1.0 mM IMP	0.93 ± 0.03 µM
Nc1cc(S(=O)(=O)O)cc2cc(S(=O)(=O)O)cc(O)c12	OXA-58	enzyme activity, inhibitor		enzyme 0.1 nM, added: nitrocefin 30 µM	30 ± 2 µM

A few entries again:
Compound	target	assay	system	setting	Ki
C[C@@H]1CN(C)CCN1c1nc(-c2ccc(F)cc2)cs1	Slc6a4 (Rattus norvegicus, UniProt P31652)	[3H]5-HT uptake, inhibitor		30 min preincubation	0.17 ± 0.09 µM
Cc1ccc(N=Nc2c(O)ccc3cc(S(=O)(=O)O)ccc23)cc1	Bcl-2-related protein A1 C113S/P104K	binding, inhibitor, fluorescence polarization		added: FITC-labelled Noxa peptide	6.06 µM
